Results collected from several papers.
Each line is one published result; not all experiments were run side by side. ± gives the spread as reported.

CCCC[C@H](NC(=O)CNC(=O)CNC(=O)CN1CCN(CC(=O)O)CCN(CC(=O)O)CCN(CC(=O)O)CC1)C(=O)N[C@H]1CC(=O)NCCCC[C@@H](C(N)=O)NC(=O)[C@H](Cc2c[nH]c3ccccc23)NC(=O)[C@H](CCCNC(=N)N)NC(=O)[C@@H](Cc2ccccc2)NC(=O)[C@H](Cc2c[nH]cn2)NC1=O [lead-203 labelled]
tissue uptake (biodistribution; C57 mice with B16/F1 melanoma, intestines; intravenous, 0.056 MBq, 2 h post-injection): 1.25 ± 0.65 %ID

COc1ccc(C)cc1NC(=O)OC1CC2CCCC(C1)N2Cc1ccc(CC[18F])cc1 (centres unmarked)
tissue uptake (BALB/c mice, EMT6 tumour, liver; 5 min): 21.1 ± 3.59 %ID/g

C[S]1CC[S]2CC[P](CO)(CO)[99Tc+]12.[C-]#[O+].[C-]#[O+].[C-]#[O+]
tissue uptake (CF-1 mice, female, urine; intravenous, 4 h): 37.4 %ID

CCCC[C@H](NC(=O)CN1CCC(NC(=O)CN2CCC(NC(=O)CN3CCN(CC(=O)O)CCN(CC(=O)O)CCN(CC(=O)O)CC3)CC2)CC1)C(=O)N[C@H]1CC(=O)NCCCC[C@@H](C(N)=O)NC(=O)[C@H](Cc2c[nH]c3ccccc23)NC(=O)[C@H](CCCNC(=N)N)NC(=O)[C@@H](Cc2ccccc2)NC(=O)[C@H](Cc2c[nH]cn2)NC1=O [gallium-68 labelled]
tissue uptake (C57BL/6J mice male B16-F10 tumour, testes; 1 h post injection, unblocked): 0.2 %ID/g

C[C@]12CC[C@H](OCC[18F])C[C@H]1CC[C@@H]1[C@@H]2CC[C@]2(C)[C@@H](c3ccc(=O)oc3)CC[C@]12O
tissue uptake (male BALB/c nude mice, HepG2 xenograft, kidney; intravenous, 7.4 MBq, 45 min): 7.17 ± 0.34 %ID/g

COc1cc(C(=O)NCCOCCOCCOCCNC(=O)c2ccc([18F])nc2)ccc1NC(=O)C1NC(CC(C)(C)C)C(C#N)(c2ccc(Cl)cc2F)C1c1cccc(Cl)c1F (centres unmarked)
tissue uptake (athymic male mice, HepG2 xenograft, small intestine; 2 h): 5.77 ± 2.59 %ID/g

CCCC[C@H](NC(=O)CCOCCOCCNC(=O)CN1CCN(CC(=O)O)CCN(CC(=O)O)CCN(CC(=O)O)CC1)C(=O)N[C@H]1CC(=O)NCCCC[C@@H](C(N)=O)NC(=O)[C@H](Cc2c[nH]c3ccccc23)NC(=O)[C@H](CCCNC(=N)N)NC(=O)[C@@H](Cc2ccccc2)NC(=O)[C@H](Cc2c[nH]cn2)NC1=O [gallium-68 labelled]
tissue uptake (C57BL/6J mice male B16-F10 tumour, fat; 1 h post injection, unblocked): 0.1 ± 0.1 %ID/g

NC(=O)[C@@H](CCCCNC(=O)CNC(=O)CCC(=O)NCCc1c[nH]cn1)NC(=O)[C@@H](Cc1ccc(O)cc1)NC(=O)[C@@H](CCCCNC(=O)CNC(=O)CCC(=O)NCCc1c[nH]cn1)NC(=O)Cc1ccc(CN2CCN(CC(=O)O)CCN(CC(=O)O)CC2)cc1 [fluorine-18 labelled]
tissue uptake (tumour-bearing nude mice, bone; intravenous, 1.04 MBq, 1 h, no pretargeting): 0.11 ± 0.02 %ID/g

For quick reference, copied from above:
COc1ccc(C)cc1NC(=O)OC1CC2CCCC(C1)N2Cc1ccc(CC[18F])cc1 (centres unmarked)
tissue uptake (BALB/c mice, EMT6 tumour, liver; 5 min): 21.1 ± 3.59 %ID/g
